Measured values gathered from unrelated publications.
Lines come from different studies, so protocols differ.
rep main protease: Replicase polyprotein 1ab, main protease (rep, Severe acute respiratory syndrome coronavirus 2, UniProt P0DTD1)

| Molecule | target or system | assay | test system | conditions | how to read | measurement | value |
| --- | --- | --- | --- | --- | --- | --- | --- |
| CC1=C2CC(C(=O)N[C@@H]3CN(C(=O)c4ccc5ccnn5c4)Cc4nccn4C3)=CN=C2NN1 | rep main protease | enzyme activity, inhibitor | – | 5 µM, mean of runs | – | inhibition | 11.5% |
| C[C@@H]1O[C@@H](O[C@@H]2[C@@H](O)[C@H](OCCc3ccc(O)c(O)c3)O[C@H](CO)[C@H]2OC(=O)/C=C/c2ccc(O)c(O)c2)[C@H](O)[C@H](O)[C@H]1O | Spike glycoprotein (Severe acute respiratory syndrome coronavirus 2, UniProt P0DTC2) | binding, BLI | – | – | – | Kd | 13.9 µM |
| Nc1ncnc2c([C@@H]3N[C@H](CO)[C@@H](O)[C@H]3O)c[nH]c12 | Zaire ebolavirus | antibody staining | HeLa, Kikwit | 50 µM | – | antigen-positive cells | 0.06% |
| CC[C@H](C)[C@H](NC(=O)[C@H](CC(C)C)NC(=O)[C@H](Cc1c[nH]c2ccccc12)NC(=O)[C@H](CCC(N)=O)NC(=O)[C@@H](NC(=O)[C@H](Cc1ccccc1)NC(=O)[C@H](C)NC(=O)[C@H](CCCCNC(=O)COCCOCCNC(=O)COCCOCCNC(=O)CC[C@H](NC(=O)CCCCCCCCCCCCCCCCCCC(=O)O)C(=O)O)NC(=O)[C@H](CCC(N)=O)NC(=O)[C@H](C)NC(=O)[C@@H](NC(=O)[C@H](CCCCN)NC(=O)[C@H](CC(=O)O)NC(=O)[C@H](CC(C)C)NC(=O)C(C)(C)NC(=O)[C@@H](NC(=O)[C@H](CO)NC(=O)[C@H](Cc1ccc(O)cc1)NC(=O)[C@H](CC(=O)O)NC(=O)[C@H](CO)NC(=O)[C@@H](NC(=O)[C@H](Cc1ccccc1)NC(=O)[C@@H](NC(=O)CNC(=O)[C@H](CCC(=O)O)NC(=O)C(C)(C)NC(=O)[C@@H](N)Cc1ccc(O)cc1)[C@@H](C)O)[C@@H](C)O)[C@@H](C)CC)[C@@H](C)CC)C(C)C)C(=O)N[C@@H](C)C(=O)NCC(=O)NCC(=O)N1CCC[C@H]1C(=O)N[C@@H](CO)C(=O)N[C@@H](CO)C(=O)NCC(=O)N[C@@H](C)C(=O)N1CCC[C@H]1C(=O)N1CCC[C@H]1C(=O)N1CCC[C@H]1C(=O)N[C@@H](CO)C(N)=O | – | – | healthy subjects, single ascending dose | 1.0 mg, baseline | – | ADA positive subjects at baseline | 0% |
| LPIGINITRF | – | AIM | peptide, CD8+ T cells from PBMC, human donors | HLA-B*07:02 restricted, unit not given | reference: positive over tested donors | frequency of responding donors | 20 |
| CC1(C)CC[C@@]2(CO)C(=C3C=C[C@@H]4[C@@]5(C)CC[C@H](O)[C@@](C)(CO)[C@@H]5CC[C@@]4(C)[C@]3(C)C[C@@H]2O)C1 | rep main protease | reporter gene (Gaussia luciferase), inhibitor | – | 20 µM | – | inhibition | 0.177% |
| LEAPFLYLY | – | AIM | peptide, CD8+ T cells from PBMC, human donors | dose not given | – | response magnitude per positive donor | 112 |
| Cn1cnc(Cn2c(=O)[nH]/c(=N\c3cc4cn(C)nc4cc3Cl)n(Cc3cc(F)c(F)cc3F)c2=O)n1 | – | – | human, severe renal impairment, plasma | oral, 375 mg single dose | – | AUC(0-last) | 1510 µg·h/mL |

A few entries again:
| Molecule | target or system | assay | test system | conditions | how to read | measurement | value |
| --- | --- | --- | --- | --- | --- | --- | --- |
| C[C@@H]1O[C@@H](O[C@@H]2[C@@H](O)[C@H](OCCc3ccc(O)c(O)c3)O[C@H](CO)[C@H]2OC(=O)/C=C/c2ccc(O)c(O)c2)[C@H](O)[C@H](O)[C@H]1O | Spike glycoprotein (Severe acute respiratory syndrome coronavirus 2, UniProt P0DTC2) | binding, BLI | – | – | – | Kd | 13.9 µM |
